Published values of several laboratories.
Each line is one published result; not all experiments were run side by side. ± gives the spread as reported.
Methyl-accepting chemotaxis protein Tlp3: Methyl-accepting chemotaxis protein Tlp3 (Campylobacter jejuni, UniProt Q0P864)
Ribonucleoside-diphosphate reductase large subunit: Ribonucleoside-diphosphate reductase large subunit (Homo sapiens, UniProt P23921)
Sequence of UniProt P23921 (whole entry, looked up): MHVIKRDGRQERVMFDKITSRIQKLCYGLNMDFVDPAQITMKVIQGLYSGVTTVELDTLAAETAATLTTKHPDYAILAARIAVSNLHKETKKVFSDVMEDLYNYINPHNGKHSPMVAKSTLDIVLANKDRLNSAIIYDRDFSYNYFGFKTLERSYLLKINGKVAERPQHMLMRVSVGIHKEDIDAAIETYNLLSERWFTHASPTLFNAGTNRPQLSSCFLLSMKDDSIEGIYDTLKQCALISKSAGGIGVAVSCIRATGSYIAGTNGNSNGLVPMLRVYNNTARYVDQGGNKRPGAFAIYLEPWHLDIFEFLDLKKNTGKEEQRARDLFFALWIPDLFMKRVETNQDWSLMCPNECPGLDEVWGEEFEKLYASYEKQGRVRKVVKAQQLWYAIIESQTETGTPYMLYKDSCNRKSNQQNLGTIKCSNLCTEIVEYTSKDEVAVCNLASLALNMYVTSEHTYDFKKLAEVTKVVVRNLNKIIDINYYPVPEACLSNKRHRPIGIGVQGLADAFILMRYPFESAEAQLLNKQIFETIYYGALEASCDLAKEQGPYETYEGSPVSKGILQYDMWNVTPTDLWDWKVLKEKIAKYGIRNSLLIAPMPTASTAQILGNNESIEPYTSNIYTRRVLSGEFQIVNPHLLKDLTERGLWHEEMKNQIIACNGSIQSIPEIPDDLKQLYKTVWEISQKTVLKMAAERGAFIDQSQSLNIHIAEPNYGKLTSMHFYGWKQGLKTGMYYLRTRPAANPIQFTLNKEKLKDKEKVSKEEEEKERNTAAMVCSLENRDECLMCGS
BCL2L1: Bcl-2-like protein 1 (BCL2L1, Homo sapiens, UniProt Q07817)
Sequence of UniProt Q07817 (whole entry, looked up): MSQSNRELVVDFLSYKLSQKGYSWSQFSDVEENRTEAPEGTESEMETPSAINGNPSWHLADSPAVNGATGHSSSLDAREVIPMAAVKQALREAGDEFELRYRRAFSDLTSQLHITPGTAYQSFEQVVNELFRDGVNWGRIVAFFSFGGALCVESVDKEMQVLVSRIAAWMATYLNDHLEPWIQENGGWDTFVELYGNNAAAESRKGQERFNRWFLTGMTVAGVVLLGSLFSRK
B1: calmodulin N-terminal domain; chain AEQLTEEQIAEFKEAFALFDKDGDGTITTKELGTVMRSLGQNPTEAELQDMINEVDADGNGTIDFPEFLSLMARK
Sequence of UniProt O15530 (whole entry, looked up): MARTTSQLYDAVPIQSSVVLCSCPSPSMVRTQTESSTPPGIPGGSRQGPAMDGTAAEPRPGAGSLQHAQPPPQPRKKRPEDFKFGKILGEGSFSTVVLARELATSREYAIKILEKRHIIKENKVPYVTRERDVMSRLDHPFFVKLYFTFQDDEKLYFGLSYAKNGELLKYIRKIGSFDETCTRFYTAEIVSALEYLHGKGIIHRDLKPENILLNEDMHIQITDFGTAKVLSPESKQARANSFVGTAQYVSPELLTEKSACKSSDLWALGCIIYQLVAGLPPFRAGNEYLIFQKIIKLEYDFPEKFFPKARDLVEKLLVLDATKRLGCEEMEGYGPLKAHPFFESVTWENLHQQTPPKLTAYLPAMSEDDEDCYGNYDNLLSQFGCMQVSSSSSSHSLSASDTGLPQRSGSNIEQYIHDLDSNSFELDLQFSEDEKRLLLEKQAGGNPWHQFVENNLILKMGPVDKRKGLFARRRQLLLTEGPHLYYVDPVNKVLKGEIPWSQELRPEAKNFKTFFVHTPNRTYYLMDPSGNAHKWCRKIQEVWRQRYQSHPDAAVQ
Sequence of UniProt P69905 (whole entry, looked up): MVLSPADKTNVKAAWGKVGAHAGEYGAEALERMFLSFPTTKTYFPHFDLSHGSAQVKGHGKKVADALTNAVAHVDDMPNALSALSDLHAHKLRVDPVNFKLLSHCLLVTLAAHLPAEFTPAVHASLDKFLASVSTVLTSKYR
Sequence of UniProt P15090 (whole entry, looked up): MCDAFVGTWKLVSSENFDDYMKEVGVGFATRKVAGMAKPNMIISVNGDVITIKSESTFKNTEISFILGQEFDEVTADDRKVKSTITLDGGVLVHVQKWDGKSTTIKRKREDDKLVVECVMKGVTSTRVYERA
Sequence of UniProt P0DMS8 (whole entry, looked up): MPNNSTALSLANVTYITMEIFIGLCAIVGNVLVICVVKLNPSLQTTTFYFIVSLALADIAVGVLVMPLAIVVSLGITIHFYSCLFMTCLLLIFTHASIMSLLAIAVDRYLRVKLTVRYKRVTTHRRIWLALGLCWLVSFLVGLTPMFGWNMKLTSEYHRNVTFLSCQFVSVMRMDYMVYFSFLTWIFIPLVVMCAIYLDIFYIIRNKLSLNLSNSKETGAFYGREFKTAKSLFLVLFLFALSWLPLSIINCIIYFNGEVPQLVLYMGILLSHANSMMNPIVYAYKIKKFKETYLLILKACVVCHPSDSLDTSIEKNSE
Sequence of UniProt P02649 (whole entry, looked up): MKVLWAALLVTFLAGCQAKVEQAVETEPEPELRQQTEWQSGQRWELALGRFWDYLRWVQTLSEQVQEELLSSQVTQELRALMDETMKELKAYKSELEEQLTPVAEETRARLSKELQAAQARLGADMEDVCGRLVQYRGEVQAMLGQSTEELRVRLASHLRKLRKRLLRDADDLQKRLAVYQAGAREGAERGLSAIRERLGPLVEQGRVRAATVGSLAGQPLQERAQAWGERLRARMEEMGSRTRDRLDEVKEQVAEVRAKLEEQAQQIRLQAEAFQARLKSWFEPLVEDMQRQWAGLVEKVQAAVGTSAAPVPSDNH
Sequence of UniProt Q53H96 (whole entry, looked up): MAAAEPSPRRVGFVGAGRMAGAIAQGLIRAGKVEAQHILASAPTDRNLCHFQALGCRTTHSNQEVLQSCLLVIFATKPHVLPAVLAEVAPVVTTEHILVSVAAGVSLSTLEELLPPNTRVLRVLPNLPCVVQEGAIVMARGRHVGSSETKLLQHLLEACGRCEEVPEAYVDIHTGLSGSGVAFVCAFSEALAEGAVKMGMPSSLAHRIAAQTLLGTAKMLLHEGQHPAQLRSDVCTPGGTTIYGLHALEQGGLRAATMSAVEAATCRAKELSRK
Sequence of UniProt Q08460 (whole entry, unmodified, looked up): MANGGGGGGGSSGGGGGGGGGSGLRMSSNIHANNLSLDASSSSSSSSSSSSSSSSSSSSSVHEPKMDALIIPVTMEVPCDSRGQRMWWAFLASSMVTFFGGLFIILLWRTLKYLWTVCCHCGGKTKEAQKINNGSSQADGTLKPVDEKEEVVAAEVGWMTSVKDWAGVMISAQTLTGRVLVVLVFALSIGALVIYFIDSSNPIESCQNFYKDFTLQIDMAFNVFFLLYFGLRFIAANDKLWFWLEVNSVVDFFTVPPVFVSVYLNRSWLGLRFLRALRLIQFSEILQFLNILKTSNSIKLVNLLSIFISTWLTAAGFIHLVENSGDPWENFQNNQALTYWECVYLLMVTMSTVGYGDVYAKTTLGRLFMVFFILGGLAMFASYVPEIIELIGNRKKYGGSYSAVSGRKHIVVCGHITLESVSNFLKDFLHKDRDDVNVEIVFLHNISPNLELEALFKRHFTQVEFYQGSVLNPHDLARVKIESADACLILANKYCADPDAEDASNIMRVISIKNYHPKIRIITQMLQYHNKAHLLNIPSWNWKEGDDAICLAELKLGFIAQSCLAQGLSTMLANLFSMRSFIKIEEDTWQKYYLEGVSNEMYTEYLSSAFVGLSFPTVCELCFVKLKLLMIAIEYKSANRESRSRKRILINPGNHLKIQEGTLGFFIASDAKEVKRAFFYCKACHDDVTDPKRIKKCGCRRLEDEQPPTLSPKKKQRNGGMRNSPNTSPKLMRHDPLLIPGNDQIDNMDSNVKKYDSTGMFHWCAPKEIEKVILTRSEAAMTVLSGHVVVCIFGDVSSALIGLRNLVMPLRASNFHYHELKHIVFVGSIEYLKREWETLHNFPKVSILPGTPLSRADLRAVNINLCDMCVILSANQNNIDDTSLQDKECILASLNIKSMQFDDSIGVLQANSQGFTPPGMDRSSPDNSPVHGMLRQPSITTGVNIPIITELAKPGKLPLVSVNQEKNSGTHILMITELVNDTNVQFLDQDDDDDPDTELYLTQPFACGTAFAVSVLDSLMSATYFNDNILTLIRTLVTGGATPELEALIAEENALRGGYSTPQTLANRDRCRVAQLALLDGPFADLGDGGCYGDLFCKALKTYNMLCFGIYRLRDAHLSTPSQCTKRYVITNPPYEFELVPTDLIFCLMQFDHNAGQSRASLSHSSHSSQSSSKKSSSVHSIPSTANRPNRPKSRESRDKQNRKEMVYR
Sequence of UniProt P02730 (whole entry, looked up): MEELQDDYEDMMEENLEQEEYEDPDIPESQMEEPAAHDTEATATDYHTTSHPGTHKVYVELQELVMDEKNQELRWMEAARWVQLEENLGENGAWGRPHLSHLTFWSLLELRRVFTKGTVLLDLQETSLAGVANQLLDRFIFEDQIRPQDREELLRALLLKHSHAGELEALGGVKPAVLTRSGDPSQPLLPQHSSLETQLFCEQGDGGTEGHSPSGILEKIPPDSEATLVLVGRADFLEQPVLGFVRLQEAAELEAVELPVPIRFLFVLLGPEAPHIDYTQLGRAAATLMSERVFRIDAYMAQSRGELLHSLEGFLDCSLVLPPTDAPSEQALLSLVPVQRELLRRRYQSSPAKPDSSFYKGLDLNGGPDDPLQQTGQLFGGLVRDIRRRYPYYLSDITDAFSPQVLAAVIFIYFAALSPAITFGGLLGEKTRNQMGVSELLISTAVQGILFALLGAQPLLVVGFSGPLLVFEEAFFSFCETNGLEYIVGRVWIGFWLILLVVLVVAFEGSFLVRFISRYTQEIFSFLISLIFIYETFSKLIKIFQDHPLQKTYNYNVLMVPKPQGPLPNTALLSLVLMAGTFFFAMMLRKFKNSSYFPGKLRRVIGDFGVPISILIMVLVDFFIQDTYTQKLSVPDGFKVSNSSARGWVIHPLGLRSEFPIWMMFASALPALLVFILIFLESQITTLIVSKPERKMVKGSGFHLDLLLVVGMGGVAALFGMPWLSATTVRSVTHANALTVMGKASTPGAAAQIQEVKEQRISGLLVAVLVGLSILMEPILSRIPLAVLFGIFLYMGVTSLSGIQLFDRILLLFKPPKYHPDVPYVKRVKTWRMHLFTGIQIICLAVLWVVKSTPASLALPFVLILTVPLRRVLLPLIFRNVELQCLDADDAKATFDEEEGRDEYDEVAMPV

CCNC(=O)[C@H]1O[C@@H](n2cnc3c(NCCCCNC(=O)CCCCCNC(=O)COc4ccc(/C=C/c5ccc6n5[B-](F)(F)[N+]5=C(c7cccs7)C=CC5=C6)cc4)ncnc32)[C@H](O)[C@@H]1O
Kd (ADORA3 (Homo sapiens, UniProt P0DMS8); NanoBRET saturation binding; HEK293 expressing Nluc-A3; 1 h, 37 °C): 0.0384 ± 0.0137 µM

CCC[C@H](N)C(=O)O
Kd (Methyl-accepting chemotaxis protein Tlp3; binding, ITC): 1530 ± 82 µM

COc1ccc(OCc2ccccn2)c(C=O)c1
Kd (Hemoglobin subunit alpha, with beta chain (HBA1, Homo sapiens, UniProt P69905); steady-state binding, cation-exchange HPLC; 37 °C): 190 µM

O=C(NNC(=O)c1c(O)ccc2ccccc12)c1cccnc1
Kd (Ribonucleoside-diphosphate reductase large subunit; binding, fluorescence; pH 8): 89.6 µM

Cn1nc(CC(=O)Nc2cc(S(=O)(=O)Nc3cccc(Cl)c3)ccc2O)c2ccccc2c1=O
Kd (APOE (Homo sapiens, UniProt P02649); SYPRO Orange displacement; pH 7.4, 25 °C): 8.8 ± 0.4 µM

COc1ccc(-c2ccoc2)c(/C=N/NC(=O)c2ccccc2O)c1O
Kd (Ribonucleoside-diphosphate reductase large subunit; binding, fluorescence; pH 8): 31.5 µM

O=P(O)(O)OC1[C@H](O)[C@H](OP(=O)(O)O)C(OP(=O)(O)O)[C@H](OP(=O)(O)O)[C@H]1O (stereo partly shown)
Kd (3-phosphoinositide-dependent protein kinase 1, PH domain (PDPK1, Homo sapiens, UniProt O15530); binding, FRET competition): 0.11 ± 0.02 µM

N=C(N)NCCC[C@H](NC(=O)c1ccc2c(c1)C(=O)OC21c2ccc(O)cc2Oc2cc(O)ccc21)C(=O)N[C@@H](CO)C(=O)N[C@@H](CCCNC(=N)N)C(=O)N[C@@H](CO)C(=O)N[C@@H](CCCNC(=N)N)C(=O)N[C@@H](CO)C(=O)N[C@@H](CCCNC(=N)N)C(=O)N[C@@H](CO)C(=O)N[C@@H](CCCNC(=N)N)C(=O)N[C@@H](CO)C(=O)N[C@@H](CCCNC(=N)N)C(=O)N[C@@H](CO)C(=O)N[C@@H](CCCNC(=N)N)C(=O)N[C@@H](CO)C(=O)N[C@@H](CCCNC(=N)N)C(=O)N[C@@H](CO)C(=O)O
Kd (SRPK1 ΔN; peptide binding, fluorescence; together with: fluorescein-labelled Arg-Ser peptide): 0.36 ± 0.08 µM

CC(C)C[C@H](N)C(=O)O
Kd (Methyl-accepting chemotaxis protein Tlp3; binding, ITC): 676 ± 32 µM

C[C@H](N)C(=O)N[C@@H](CCCNC(=N)N)C(=O)N[C@H](C(=O)N[C@@H](CCCCN)C(=O)N[C@@H](CCC(N)=O)C(=O)N[C@H](C(=O)N[C@@H](C)C(=O)N[C@@H](CCCNC(=N)N)C(=O)N[C@@H](CCCCN)C(=O)N[C@@H](CO)C(=O)N[C@H](C(=O)NCC(=O)O)[C@@H](C)O)[C@@H](C)O)[C@@H](C)O
Kd (Baculoviral IAP repeat-containing protein 5.1-A (birc5.1-a, Xenopus laevis, UniProt Q8JGN5); ITC; pH 7.8, 25 °C): 73.9 ± 12.2 µM

O=C1c2c(O)ccc(O)c2C(=O)c2c(NCCNCCO)ccc(NCCNCCO)c21
Kd (HIV-1 nucleocapsid-SL4 RNA complex; binding, ESI-FTMS; pH 7.5): 6.9 ± 5.9 µM

CC1=C(/C=C/C(C)=C/C=C/C(C)=C/CO)C(C)(C)CCC1
Kd (Retinol-binding protein 2 (Rbp2, Rattus norvegicus, UniProt P06768); binding, fluorescence titration; pH 7.4, 25 °C): 0.01 ± 0.003 µM

YGAQLDRYAQDF
Kd (BCL2L1; yeast display titration; peptide; 2 h, pH 8.0, room temperature): 0.0039 ± 0.0009 µM

CC(=O)N[C@@H](CC(C)C)C(=O)N[C@@H](CCCCN)C(=O)N[C@@H](CCCCN)C(=O)N[C@@H](CC(C)C)C(=O)N[C@@H](CC(C)C)C(=O)N[C@@H](CCCCN)C(=O)N[C@@H](CC(C)C)C(=O)N[C@@H](Cc1c[nH]c2ccccc12)C(=O)N[C@@H](CCCCN)C(=O)N[C@@H](CCCCN)C(=O)N[C@@H](CC(C)C)C(=O)N[C@@H](CC(C)C)C(=O)N[C@@H](CCCCN)C(=O)N[C@@H](CC(C)C)C(=O)N[C@@H](C)C(=O)NCC(N)=O
Kd (HIV-1 RRE hairpin RNA; competitive fluorescence anisotropy; pH 7.4, 20 °C, together with: rhodamine-Rev peptide): 0.037 ± 0.0002 µM

CCCCCCCCCC[N+](CC)(CC)CC
Kd (Kcnma1 (Mus musculus, UniProt Q08460, E386N/E389N); ion current, blocker, inside-out patch clamp; E321N/E324N double mutant, 100 mV): 32.8 µM

O=C(O)C(F)(F)C(F)(F)C(F)(F)C(F)(F)C(F)(F)C(F)(F)C(F)(F)C(F)(F)C(F)(F)C(F)(F)C(F)(F)C(F)(F)C(F)(F)F
Kd (FABP4 (Homo sapiens, UniProt P15090); ligand displacement, fluorescence): < 1 µM

CC(C)[C@H](N)C(=O)O
Kd (Methyl-accepting chemotaxis protein Tlp3, sensing domain (Campylobacter jejuni, UniProt Q0P864); binding, thermal shift; 25 °C, curve fitting, ITC enthalpy): 688 ± 188 µM

CC(=O)N[C@@H](CC(C)C)C(=O)N[C@@H](CCCCN)C(=O)N[C@@H](CCCCN)C(=O)N[C@@H](CC(C)C)C(=O)N[C@@H](Cc1c[nH]c2ccccc12)C(=O)N[C@@H](CCCCN)C(=O)N[C@@H](CC(C)C)C(=O)N[C@@H](CC(C)C)C(=O)N[C@@H](CCCCN)C(=O)N[C@@H](CCCCN)C(=O)N[C@@H](CC(C)C)C(=O)N[C@@H](CC(C)C)C(=O)N[C@@H](CCCCN)C(=O)N[C@@H](CC(C)C)C(=O)N[C@@H](C)C(=O)NCC(N)=O
Kd (HIV-1 TAR hairpin RNA; competitive fluorescence anisotropy; pH 7.4, 20 °C, together with: rhodamine-Rev peptide): 0.0098 ± 0.0007 µM

Oregon Green
Kd (calcium; fluorescence; 22 °C): 32.2 µM

COc1ccc(-c2cnc(-c3ccccc3O)s2)cc1
Kd (Ribonucleoside-diphosphate reductase large subunit; binding, fluorescence): 9.9 µM

C[n+]1cccc2cc(C=NNC(=O)c3ccc4ccc5ccc(C(=O)NN=Cc6ccc7c(ccc[n+]7C)c6)nc5c4n3)ccc21
Kd (MYC promoter G4 DNA; binding, native ESI-MS; 100 mM trimethylammonium acetate; 1 mM KCl): 0.21 µM

NC(=O)c1ccc[n+]([C@@H]2O[C@H](COP(=O)([O-])OP(=O)(O)OC[C@H]3O[C@@H](n4cnc5c(N)ncnc54)[C@H](O)[C@@H]3O)[C@@H](O)[C@H]2O)c1
Kd (AKR1C3 (Homo sapiens, UniProt P42330); tryptophan fluorescence titration; pH 7.0, 25 °C): 170 ± 26 µM

AAQELRRYGDEY
Kd (BCL2L1; yeast display titration; peptide; 2 h, pH 8.0, room temperature): 0.004 ± 0.002 µM

CC[N+](CC)(CC)CC
Kd (maxi-KCa channel, rat; fast channel block, blocker, single-channel recording at +30 mV; external application, open state): 190 ± 37 µM

B1 (calmodulin N-terminal domain)
Kd (rat NaV1.2 IQ motif; FRET biosensor titration; pH 7.4, 22 °C, calcium-saturated, together with: 1 mM CaCl2; lower limit): > 100 µM

Cc1cc(=S)c(O)co1
Kd (Carbonic anhydrase 2, Co(II)-substituted (CA2, Bos taurus, UniProt P00921); binding, UV-vis titration; pH 7.5, protonated form): 160 µM

[I-].[K+]
Kd (SLC4A1 (Homo sapiens, UniProt P02730); 36Cl exchange flux, inhibitor, Dixon plot; human red blood cells; pH 11.9 external, 0 °C, internal Cl 294 mM, CAPS buffer): 66300 µM

Nc1c2ccccc2nc2ccccc12
Kd (voltage-gated sodium channel; sodium current, open-channel pore blocker, internal perfusion voltage clamp; Doryteuthis pealeii, pronase-treated giant axon; internal drug, 50 mM Na, zero voltage): 58.6 ± 11.6 µM

NC(=O)C1=CN([C@@H]2O[C@H](COP(=O)(O)OP(=O)(O)OC[C@H]3O[C@@H](n4cnc5c(N)ncnc54)[C@H](O)[C@@H]3O)[C@@H](O)[C@H]2O)C=CC1
Kd (Pyrroline-5-carboxylate reductase 3 (PYCR3, Homo sapiens, UniProt Q53H96); binding, bisubstrate kinetics; pH 7.5, 26 °C, steady-state ordered bi bi, compound binds first): 31 ± 14 µM

CC(=O)N[C@@H](CC(C)C)C(=O)N[C@@H](CCCCN)C(=O)N[C@@H](CCCCN)C(=O)N[C@@H](CC(C)C)C(=O)N[C@@H](CC(C)C)C(=O)N[C@@H](CCCCN)C(=O)N[C@@H](Cc1c[nH]c2ccccc12)C(=O)N[C@@H](CC(C)C)C(=O)N[C@@H](CCCCN)C(=O)N[C@@H](CCCCN)C(=O)N[C@@H](CC(C)C)C(=O)N[C@@H](CC(C)C)C(=O)N[C@@H](CCCCN)C(=O)N[C@@H](CC(C)C)C(=O)N[C@@H](C)C(=O)NCC(N)=O
Kd (HIV-1 RRE hairpin RNA; competitive fluorescence anisotropy; pH 7.4, 20 °C, together with: rhodamine-Rev peptide): 0.0012 ± 7e-05 µM

COc1ccc(-c2ccsc2)c(/C=N/NC(=O)c2ccccc2O)c1O
Kd (Ribonucleoside-diphosphate reductase large subunit; binding, fluorescence; pH 8): 30 µM
